Results pooled from the literature.
Protocols differ between the studies behind these lines. “And” joins repeats or separate records; there may be more than shown.
Cell line: Hs-578T

Compound | technique | tested at | time | setting | reference | quantity | value
CCOc1ccc(-c2nc3cc(-c4nc5cc(N6CCN(C)CC6)ccc5[nH]4)ccc3[nH]2)cc1OCC | SRB | 10 µM | 48 h |  |  | growth percent | 11.1%
Cc1n[nH]c2nc(-c3ccc(Cl)cc3)c3c(NC(=O)c4ccccc4)nnc-3n12 | SRB | 10 µM |  | NCI60 single-dose screen | untreated | cell growth | 101%
CCCCN1CCN(c2ccc3nc(-c4ccc5nc(-c6cc(OC)ccc6OC)[nH]c5c4)[nH]c3c2)CC1 | SRB | 10 µM | 48 h |  |  | growth percent | 95.1%
C#C[C@@]1(O)[C@@H](CO)O[C@@H](n2cc(I)c3c(N)ncnc32)[C@@H]1O | SRB |  |  | NCI-60 screen |  | TGI | 7.12 µM and 8.62 µM
O=C(Nc1nnc2n3c(=S)[nH][nH]c3nc(-c3ccc(Cl)cc3)c1-2)c1ccccc1 | SRB | 10 µM |  | NCI60 single-dose screen | untreated | cell growth | 74%
O=C1NCCc2[nH]c(-c3ccncc3)cc21 | MTS |  |  | NCI60 panel |  | IC50 | > 10 µM
CN1CCN(c2ccc3[nH]c(-c4ccc5[nH]c(-c6ccc(C(F)(F)F)cc6)nc5c4)nc3c2)CC1 | SRB | 10 µM | 48 h |  |  | growth percent | 26.4%
Cn1cncc1C1=CN(c2ncnc3[nH]cnc23)CCS1 |  |  |  |  |  | TGI | 29.5 µM
O=C(Nc1nnc2[nH]c(=S)[nH]c(-c3ccc(Cl)cc3)c1-2)c1ccccc1 | SRB | 10 µM |  | NCI60 single-dose screen | untreated | cell growth | 96.4%
CCCCN1CCN(c2ccc3[nH]c(-c4ccc5[nH]c(-c6ccc(OCC)cc6)nc5c4)nc3c2)CC1 | SRB | 10 µM | 48 h |  |  | growth percent | 74.4%
O=C(Nc1nnc2n3c(Cc4ccccc4)n[nH]c3nc(-c3ccc(Cl)cc3)c1-2)c1ccccc1 | SRB | 10 µM |  | NCI60 single-dose screen | untreated | cell growth | 97.5%
C#C[C@@]1(O)[C@@H](CO)O[C@@H](n2cc(F)c3c(N)ncnc32)[C@@H]1O | SRB |  |  | NCI-60 screen |  | TGI | > 100 µM

Excerpt of the above:
Compound | technique | tested at | time | setting | reference | quantity | value
Cc1n[nH]c2nc(-c3ccc(Cl)cc3)c3c(NC(=O)c4ccccc4)nnc-3n12 | SRB | 10 µM |  | NCI60 single-dose screen | untreated | cell growth | 101%
